{"data": "Measured values of several laboratories", "note": "Numbered parts are unrelated; each lists some results of a single study."}
{"data": "Sample 1", "target": "Histone acetyltransferase KAT6A, both winged helices, GST fusion (KAT6A, Homo sapiens, UniProt Q92794, residues 1-181)", "technique": "protein binding microarray", "molecule type": "double-stranded DNA, one strand shown", "sample": "in vitro", "tested at": "not given", "notes": "8-mer, flanks averaged, mean of 2 arrays, mostly near background", "reference": "not given", "direction": "higher = stronger binding", "Construct (chain)": "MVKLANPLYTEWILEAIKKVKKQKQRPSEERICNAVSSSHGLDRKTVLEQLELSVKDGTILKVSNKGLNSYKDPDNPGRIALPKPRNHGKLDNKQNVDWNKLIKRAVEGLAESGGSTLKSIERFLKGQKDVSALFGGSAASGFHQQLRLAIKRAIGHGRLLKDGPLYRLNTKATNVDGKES"}
{"Strand": "TTCGCAAA", "E-score": 0.00299}
{"Strand": "GGAAGCTA", "E-score": -0.00284}
{"Strand": "CTATGGAC", "E-score": -0.00661}
{"Strand": "AAATCAAA", "E-score": 0.0105}
{"Strand": "ATAAGCAT", "E-score": -0.0994}
{"Strand": "CCGTAACC", "E-score": 0.272}
{"Strand": "CAAGGAGA", "E-score": -0.133}
{"Strand": "GCCAGTCA", "E-score": -0.126}
{"Strand": "CCACTGAG", "E-score": -0.167}
{"Strand": "AAGATCCT", "E-score": -0.0933}
{"Strand": "CTACATCA", "E-score": -0.0602}
{"Strand": "CGTGATAG", "E-score": 0.159}
{"Strand": "ATCATCCG", "E-score": 0.0709}
{"Strand": "ACCTGGGG", "E-score": -0.197}
{"Strand": "ACGGTTGG", "E-score": 0.0027}
{"Strand": "CCAACCCG", "E-score": 0.201}
{"Strand": "CACGAATA", "E-score": -0.146}
{"Strand": "GGACACAC", "E-score": 0.0309}
{"Strand": "ACCCCACG", "E-score": -0.0986}
{"Strand": "AGAATTTA", "E-score": -0.0969}
{"Strand": "CCGAAACG", "E-score": 0.0751}
{"Strand": "CCGGTAAC", "E-score": 0.161}
{"Strand": "CTAGAATC", "E-score": -0.156}
{"Strand": "AATAGCCC", "E-score": -0.0718}
{"Strand": "TGCTACCA", "E-score": -0.183}
{"data": "Sample 2", "target": "RNA binding protein fox-1 homolog 2, RRM domain, GST-SBP tag (RBFOX2, Homo sapiens, UniProt O43251-10, residues 100-194)", "technique": "RNA Bind-n-Seq", "molecule type": "RNA", "sample": "in vitro", "tested at": "365 nM", "notes": "natural RNA segment, single round, ends assumed", "reference": "no-protein control", "direction": "higher = stronger binding", "shared flanks, not repeated": "GGGAGUUCUACAGUCCGACGAUC … UGGAAUUCUCGGGUGCCAA", "Residues (chain)": "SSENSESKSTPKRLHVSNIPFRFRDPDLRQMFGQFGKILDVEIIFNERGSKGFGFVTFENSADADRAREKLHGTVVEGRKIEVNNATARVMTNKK"}
{"Strand": "ACAUGUUAAAAAGCAAUUUAAGAUGAAAAAACUAGCUUUACAGUGUGUACACUUUUUCUCUAAAAUAAACUUUUGUGGCUUUAGUGUCUUAGAAGGAGAGUCCUAACAUG", "RBNS enrichment (R)": 0.425}
{"Strand": "GGUUGUUAAGUGUUCUCUCUUUGCUUCCGUUUACUGAGUUUUCAAAGGUUUGUGGGAAAAUGUAGGUGAUUUAGAGAGAACCUUGUGUAGUUUUUCUUACGACUCAGACA", "RBNS enrichment (R)": 1.83}
{"Strand": "UUCUUACACCCAGCUUACGAGAUCUGGCUCAUACCUUCCCUUUGGAUCUCAUUAAAUGGUGAUUUCUCACUAUGCUCCAGCCCCUCUUAGGUCCUCAUCUCCGUCUUGCA", "RBNS enrichment (R)": 0.749}
{"Strand": "UUAAAAGAGCUCUAAAUUUGCUUGUAUAUAAAGGCUUAAUAUGAGUUUUACUUGUUAGGGUCAAGGGUGUCUUGCCCAUUAACAGCUGUAGAUAGACAUUAAAGUAAAGC", "RBNS enrichment (R)": 0.983}
{"Strand": "AGUUUUAAUGUAGAAAGACAUUUACAUAUAAGUCUGUUUAAUUUCAAAGGAGUUUGUGAAAAAAAAUCCAUGGUGAAAAUGAAACAAUGACAUGGUUAAUCUGGAACUUA", "RBNS enrichment (R)": 0.435}
{"Strand": "UAUUUAUUUGUACCCACCCUUCCCUCACUUCUGCCCAGCUGGGCUCCAGAGAGAGGACCCUGCCCAUCCUCCUUUUGAAGCCAGGACUUAUUCUUGGUUCAUCAUACUCC", "RBNS enrichment (R)": 0.544}
{"Strand": "ACAACCUAUUUUCUGGUUGUUGUCAGCUUGCCCCUGUCUAUACAGCUUGUUACGUGAAUUCAACAAGCUGUCUUCUUAACGGGAGCCCUCAUUCUGGUUUAUUUAUUAUG", "RBNS enrichment (R)": 0.269}
{"Strand": "AGGGACAGAGGUGAAAUUUUGAGUGACUUGAGUCUCUUGCAGUCCCUGAUUACACAGAACCUUUCUGGGCUACUUGGAGCAUCACGAAUAGUCUUUCCUGUACUUACCAG", "RBNS enrichment (R)": 0.344}
{"Strand": "UUUUUUUGCUUUGUUUUGUUUGUGCUAAUUUGGGAAUUGUGUACUCCGAAACAAGUAGAAAAGUGCUGUUUGAGGGAUUUUAUUAAAUCUUUUUUUAAUGGAAUGUGGUA", "RBNS enrichment (R)": 0.639}
{"Strand": "GUUACAAGGAUGCCUCUCCACACUUGUCCUCUCUACCCACCUACGCUGGAAAUCCAGUUCUUCAGGAACUGCCUUCCUCCCUAAUUCUGCUCUUGCUUUUCAGAGAGCCA", "RBNS enrichment (R)": 0.598}
{"Strand": "ACAGAAUAACAAUCUUAUUUUCUAUUUGAUAACUAUGGUAUCAUAUUGGGUUACUGUAUAAGGAAAAUGGCAGGGGAGUUGUGGGAAGCUUGUCUUUACAAAAUAUAAUU", "RBNS enrichment (R)": 0.678}
{"Strand": "GAAAGAGUUCCUCACAUACAGGACUUUUAGCAGUGCCGGCUCCCCCACCUCCUGCAGCAGCAGCAGUACAAGGGACUGGCUAGGAUGGAGUCAGGCAGCUCACACUGGAC", "RBNS enrichment (R)": 0.364}
{"data": "Sample 3", "target": "Interferon regulatory factor 3, full length, phosphomimetic (IRF3, Homo sapiens, UniProt Q14653, residues 1-427, S386D/S396D/S398D/S402D/T404D/S405D)", "technique": "protein-binding microarray", "molecule type": "double-stranded DNA, one strand shown", "sample": "in vitro", "tested at": "2540 nM top", "notes": "60-bp whole probe", "together with": "salmon DNA 0.4 mg/ml", "reference": "random background probes", "direction": "higher = stronger binding", "shared flanks, not repeated": "GCCTAGCAC … GTCTTGATTCGCTTGACGCTGCTG", "Target sequence (chain)": "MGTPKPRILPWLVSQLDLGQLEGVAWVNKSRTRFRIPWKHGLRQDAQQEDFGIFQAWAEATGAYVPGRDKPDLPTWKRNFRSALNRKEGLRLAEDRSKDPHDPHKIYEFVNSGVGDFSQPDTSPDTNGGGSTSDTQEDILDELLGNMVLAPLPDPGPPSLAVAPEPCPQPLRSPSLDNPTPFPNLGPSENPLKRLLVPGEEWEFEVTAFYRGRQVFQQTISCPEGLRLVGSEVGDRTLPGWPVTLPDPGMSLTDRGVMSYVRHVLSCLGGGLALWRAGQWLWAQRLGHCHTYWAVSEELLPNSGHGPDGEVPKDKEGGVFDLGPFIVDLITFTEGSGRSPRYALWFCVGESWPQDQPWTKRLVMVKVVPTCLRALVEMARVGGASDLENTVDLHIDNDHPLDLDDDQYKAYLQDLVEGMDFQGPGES"}
{"Strand": "TTAGGTATCCTTATCCGTTAGTGCTAG", "fitted relative affinity": "5.15 z-score"}
{"Strand": "GGCGGACTGGGGTTTCGGGACGTGCTA", "fitted relative affinity": "0.351 z-score"}
{"Strand": "TTAGGTTTCGGTTCCGGTTTGTGCTAG", "fitted relative affinity": "11.5 z-score"}
{"Strand": "GACCGTTTCCTTATCCTGACGTGCTAG", "fitted relative affinity": "6.24 z-score"}
{"Strand": "GTAGGTATCGGGACTGGGTTAGTGCTA", "fitted relative affinity": "1.24 z-score"}
{"Strand": "TTAGATATCAGCCTCGATTAGTGCTAG", "fitted relative affinity": "-0.171 z-score"}
{"Strand": "ATAGGTCTCCTACTGCTTTAGTGCTAG", "fitted relative affinity": "0.741 z-score"}
{"Strand": "TTAGATATTGGGTTTCGATTAGTGCTA", "fitted relative affinity": "1.59 z-score"}
{"Strand": "TTAGGACAGCTTCTCCTTTAGTGCTAG", "fitted relative affinity": "-0.118 z-score"}
{"Strand": "GAAAATTTCTTCCTCCCCCTGTGCTAG", "fitted relative affinity": "0.243 z-score"}
{"Strand": "TCCAATTACCTTTTCACTTTGTGCTAG", "fitted relative affinity": "4.54 z-score"}
{"Strand": "TTAGGACTGCTTATACTTTAGTGCTAG", "fitted relative affinity": "-0.199 z-score"}
{"Strand": "TTAGATTTAGGGTTTCGATTAGTGCTA", "fitted relative affinity": "1.55 z-score"}
{"Strand": "TTAGATCTCAGTTTCGGTTAGTGCTAG", "fitted relative affinity": "4.99 z-score"}
{"Strand": "TCACTCTTCTTTTGCTAACTGTGCTAG", "fitted relative affinity": "1.83 z-score"}
{"Strand": "GAAGGTATCGGTATCGGGACGTGCTAG", "fitted relative affinity": "4.36 z-score"}
{"Strand": "ATGCCTTTCTCTTGGAGCTTGTGCTAG", "fitted relative affinity": "4.57 z-score"}
{"Strand": "AACGGACTGCTTATCCTGACGTGCTAG", "fitted relative affinity": "-0.149 z-score"}
{"Strand": "TTAGATCTCAGGCTCGATTAGTGCTAG", "fitted relative affinity": "-0.141 z-score"}
{"Strand": "TTAGAACTGAGTATCGATGAGTGCTAG", "fitted relative affinity": "-0.199 z-score"}
{"Strand": "TTGGGTCTCCTTTTCCTTTAGTGCTAG", "fitted relative affinity": "4.15 z-score"}
{"Strand": "GACGGTTTTCTTCTCCTGACGTGCTAG", "fitted relative affinity": "4.15 z-score"}
{"Strand": "GACGGACTGGACCCTGGGGACGTGCTA", "fitted relative affinity": "-0.81 z-score"}
{"data": "Sample 4", "target": "RING finger protein unkempt homolog, zinc fingers 1-6, GST-SBP tag (UNK, Homo sapiens, UniProt Q9C0B0, residues 30-357)", "technique": "RNA Bind-n-Seq", "molecule type": "RNA", "sample": "in vitro", "tested at": "not given", "notes": "RNA with constant flanks, human and mouse sites, ends assumed", "reference": "input RNA pool", "direction": "higher = stronger binding", "shared flanks, not repeated": "GGGAGUUCUACAGUCCGACGAUC … CAACAGAGGAUUGAGCAUCA", "sequence of UniProt Q9C0B0 (30-357, looked up)": "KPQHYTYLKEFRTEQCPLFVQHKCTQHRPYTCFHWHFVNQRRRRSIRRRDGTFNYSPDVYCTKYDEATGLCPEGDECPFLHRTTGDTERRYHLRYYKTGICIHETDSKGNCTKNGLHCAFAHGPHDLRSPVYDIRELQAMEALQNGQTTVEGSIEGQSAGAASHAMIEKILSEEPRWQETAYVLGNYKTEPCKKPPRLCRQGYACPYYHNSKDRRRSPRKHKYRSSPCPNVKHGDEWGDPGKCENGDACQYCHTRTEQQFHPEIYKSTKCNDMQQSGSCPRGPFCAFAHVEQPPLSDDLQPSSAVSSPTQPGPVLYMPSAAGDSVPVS"}
{"Strand": "AGAAAGCCAAGGCCUGUCUCGCUCUUCUCUACACCCGUGGUGGAAGAGGUGGAAGUGCCCUCCAGCCUGGACGAGAGCCCCAUGGCUUUCUAUGAGCCCACCUUGGACUGUACCCUCCGG", "bound/input enrichment": "0.208 ratio"}
{"Strand": "CUUAAUUAGAGGGCAAUAUAUGUUUCAUAAAGAAGAGUCUUUAUAAUUUUGUUUGUCAGAUAGUAUUUUGGAAUUUGUAUAAUAAGGAUGUUUAGAAGCCAUAUAAGUGGCUUUUUUUAA", "bound/input enrichment": "9.4 ratio"}
{"Strand": "CUGGGUAUUAUUUCUCGAGCUGUUAAACACCUUUUUAAGAGUAUUGAAGAAAAAAAACACAUAGCAAUUAAAAAUGGGCUUCCUGCUCCAGAUUUUAAAGUGAAUGCCCAAUUCUUAGAG", "bound/input enrichment": "3.56 ratio"}
{"Strand": "UUUGGAGAAAGUGUCAUGGAAGUUCUGCGUCCACAGCUUAUAAGAAUUGAUGGCCGGAAUUACAGGAAGAAUCCAGUCCAAGAACAGACCUAUCAACAUGAAGAAGAUGAAGAGGACUUC", "bound/input enrichment": "0.21 ratio"}
{"Strand": "UGUUUCCCAAUGUUAUGCUCGCUUGCCUAGCUUUAUGAAUUGCUUUGGUUUCUGUUUUUGCAUACUCUCAAUUUCUUUGAACCCCACCCCCACCCCACCCCCACUUACAUGCAUGCGAUC", "bound/input enrichment": "0.546 ratio"}
{"Strand": "GGAGGUCCUCGAGGACCCAGUGUGCCCCCUGGCAUGAACCCUUCAGGCAUGGGAGGAAUGAUGGGCCCCUCUGGCCUUUCUUCAAUGGCCAUGACUCCUACCCGGGCAGCAGGCAUGACA", "bound/input enrichment": "0.252 ratio"}
{"Strand": "CAAGCAACUUACACUGGUUUGACAGUGGUCAGUUCCCCGCCCCACAGUCCAGCGUGCCUGCACUCACCCACCCUUCCUUUAAGACUUGGCUGCUGUUUUAAAGUUUGCCCUUCCUUCAAA", "bound/input enrichment": "0.247 ratio"}
{"Strand": "CCUGUUGCUUUUGCUUGCUUCUCCAUUUAAUAGUUACUGAACUUUAUGCAUGUUGAUCUAUAUUGAUUUUCACUGCAGUUGAAUGAACAAAUUAUUUCAGUGUGACAGCCAUGACUCAAG", "bound/input enrichment": "0.168 ratio"}
{"Strand": "GAAAUGAAAUACUACAUAGUGCAUUUGAAACGCCACUUUAUGUUUCGAAACCAUCUCUGUUUAGUUUUUGAAAUGCUGUCCUACAACCUCUAUGACUUGCUGAGAAACACCAAUUUCCGA", "bound/input enrichment": "0.441 ratio"}
{"Strand": "AGAUUAGGCCAUGAUCCCUACAGACUAACUCCGGAUCCCUAUAGGGUAUCACCUAGGCCCUAUAGAAUAGCACCCAGGUCCUAUAGGAUAGCACCUAGGCCAUACAGGUUAGCACCUAGA", "bound/input enrichment": "3.76 ratio"}
{"Strand": "CAUGCCUACACUGGUGCACCCCGGCCUCCCAUGAGGGCCCCUCCCUCCUCACCACAGUUGGUGUAUCCCACCACUGACACCACAGGGAACUCUCGCCGCACCCGCUCCUUCCGCAUCAGC", "bound/input enrichment": "0.285 ratio"}
